Measurements of several laboratories.
Every numbered part comes from another study and shows a few of its results, in no order. Values joined by “and” are separate records of one study, mostly repeats; a detail may differ.
Chain of UniProt Q05397 (whole entry, looked up): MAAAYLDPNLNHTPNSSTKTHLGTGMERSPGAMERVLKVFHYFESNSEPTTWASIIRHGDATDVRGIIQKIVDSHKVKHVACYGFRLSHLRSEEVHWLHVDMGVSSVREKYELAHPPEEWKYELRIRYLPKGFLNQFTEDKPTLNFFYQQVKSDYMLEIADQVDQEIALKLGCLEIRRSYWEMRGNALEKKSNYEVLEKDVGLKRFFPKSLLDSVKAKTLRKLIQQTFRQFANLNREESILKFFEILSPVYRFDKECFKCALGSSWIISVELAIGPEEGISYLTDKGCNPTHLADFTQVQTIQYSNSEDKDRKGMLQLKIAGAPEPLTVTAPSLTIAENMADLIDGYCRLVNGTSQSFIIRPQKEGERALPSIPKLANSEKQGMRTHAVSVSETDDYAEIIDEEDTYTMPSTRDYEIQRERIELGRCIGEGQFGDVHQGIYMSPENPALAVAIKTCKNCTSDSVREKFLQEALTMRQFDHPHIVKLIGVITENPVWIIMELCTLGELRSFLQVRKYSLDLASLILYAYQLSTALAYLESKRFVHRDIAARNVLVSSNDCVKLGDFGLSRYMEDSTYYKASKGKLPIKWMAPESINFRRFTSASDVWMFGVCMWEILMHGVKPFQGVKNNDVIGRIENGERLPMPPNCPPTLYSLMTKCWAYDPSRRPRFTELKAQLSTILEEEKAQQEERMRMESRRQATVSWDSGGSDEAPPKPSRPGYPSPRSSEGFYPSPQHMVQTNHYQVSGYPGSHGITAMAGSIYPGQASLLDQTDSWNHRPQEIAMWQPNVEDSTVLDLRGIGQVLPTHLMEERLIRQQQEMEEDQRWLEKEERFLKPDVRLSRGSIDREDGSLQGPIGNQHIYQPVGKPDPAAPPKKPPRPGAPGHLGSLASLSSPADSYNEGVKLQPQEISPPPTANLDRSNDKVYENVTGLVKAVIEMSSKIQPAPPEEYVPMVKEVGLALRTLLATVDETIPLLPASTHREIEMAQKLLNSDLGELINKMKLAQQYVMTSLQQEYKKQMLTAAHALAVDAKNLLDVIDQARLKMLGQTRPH

Study 1
Compound: Cc1ccc(O)c(C)c1-c1cnc2[nH]c(-c3cnc(N4CCC5(CC4)CC(N4CCN(c6ccc(NC7CCC(=O)NC7=O)cc6F)CC4)CO5)nc3)cc2c1C#N (stereo not drawn)
Target: Membrane-associated tyrosine- and threonine-specific cdc2-inhibitory kinase (PKMYT1, Homo sapiens, UniProt Q99640)
Quantity: degradation
Target sequence (Q99640 1-499): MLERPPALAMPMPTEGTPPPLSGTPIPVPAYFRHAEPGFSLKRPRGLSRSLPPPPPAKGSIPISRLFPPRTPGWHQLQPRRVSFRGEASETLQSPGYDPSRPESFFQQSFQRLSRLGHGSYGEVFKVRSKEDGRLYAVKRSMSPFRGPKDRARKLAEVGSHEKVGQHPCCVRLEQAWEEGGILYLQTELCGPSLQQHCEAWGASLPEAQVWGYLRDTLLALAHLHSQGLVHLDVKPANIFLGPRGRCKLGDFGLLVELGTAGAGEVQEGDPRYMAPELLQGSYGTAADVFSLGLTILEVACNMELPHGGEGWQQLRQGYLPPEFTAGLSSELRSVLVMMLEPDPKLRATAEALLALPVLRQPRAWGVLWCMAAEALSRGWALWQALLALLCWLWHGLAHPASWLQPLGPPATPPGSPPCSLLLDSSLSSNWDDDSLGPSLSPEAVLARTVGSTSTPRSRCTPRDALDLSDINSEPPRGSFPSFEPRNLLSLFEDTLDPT
HuCCT-1; 0.15 nM: 22%
HCC1599; 333.33 nM: 68.5%
HuCCT-1; 37.04 nM: 82.6%
MDA-MB-157; 333.33 nM: 62.5%
MDA-MB-157; 1.37 nM: 40.9%
HCC1599; 0.0169 nM: 24.6%
HCC1599; 12.35 nM: 75.2%
HCC1599; 0.46 nM: 38.6%

Study 2
Structure (SMILES): C[C@@H]1CN(c2ccc(-c3cc(C(=O)NCCOCCOCCOCCOCCNC(=O)/C=C/c4[nH]cc(C(=O)N[C@@H](CC(N)=O)c5ccc(F)c(Cl)c5)c4-c4ccc(Cl)cc4F)ccc3F)cc2NC(=O)c2c[nH]c(=O)cc2C(F)(F)F)C[C@H](C)N1C
Read-out: thermal unfolding
Method: differential scanning fluorimetry
Tested at: 5.5 µM
Direction: higher = more unfolded
Quantity: SYPRO Orange fluorescence
WDR5: WD repeat-containing protein 5 (WDR5, Homo sapiens, UniProt P61964)
DCAF1: DDB1- and CUL4-associated factor 1 (DCAF1, Homo sapiens, UniProt Q9Y4B6)
Chain of UniProt Q9Y4B6 (whole entry, looked up): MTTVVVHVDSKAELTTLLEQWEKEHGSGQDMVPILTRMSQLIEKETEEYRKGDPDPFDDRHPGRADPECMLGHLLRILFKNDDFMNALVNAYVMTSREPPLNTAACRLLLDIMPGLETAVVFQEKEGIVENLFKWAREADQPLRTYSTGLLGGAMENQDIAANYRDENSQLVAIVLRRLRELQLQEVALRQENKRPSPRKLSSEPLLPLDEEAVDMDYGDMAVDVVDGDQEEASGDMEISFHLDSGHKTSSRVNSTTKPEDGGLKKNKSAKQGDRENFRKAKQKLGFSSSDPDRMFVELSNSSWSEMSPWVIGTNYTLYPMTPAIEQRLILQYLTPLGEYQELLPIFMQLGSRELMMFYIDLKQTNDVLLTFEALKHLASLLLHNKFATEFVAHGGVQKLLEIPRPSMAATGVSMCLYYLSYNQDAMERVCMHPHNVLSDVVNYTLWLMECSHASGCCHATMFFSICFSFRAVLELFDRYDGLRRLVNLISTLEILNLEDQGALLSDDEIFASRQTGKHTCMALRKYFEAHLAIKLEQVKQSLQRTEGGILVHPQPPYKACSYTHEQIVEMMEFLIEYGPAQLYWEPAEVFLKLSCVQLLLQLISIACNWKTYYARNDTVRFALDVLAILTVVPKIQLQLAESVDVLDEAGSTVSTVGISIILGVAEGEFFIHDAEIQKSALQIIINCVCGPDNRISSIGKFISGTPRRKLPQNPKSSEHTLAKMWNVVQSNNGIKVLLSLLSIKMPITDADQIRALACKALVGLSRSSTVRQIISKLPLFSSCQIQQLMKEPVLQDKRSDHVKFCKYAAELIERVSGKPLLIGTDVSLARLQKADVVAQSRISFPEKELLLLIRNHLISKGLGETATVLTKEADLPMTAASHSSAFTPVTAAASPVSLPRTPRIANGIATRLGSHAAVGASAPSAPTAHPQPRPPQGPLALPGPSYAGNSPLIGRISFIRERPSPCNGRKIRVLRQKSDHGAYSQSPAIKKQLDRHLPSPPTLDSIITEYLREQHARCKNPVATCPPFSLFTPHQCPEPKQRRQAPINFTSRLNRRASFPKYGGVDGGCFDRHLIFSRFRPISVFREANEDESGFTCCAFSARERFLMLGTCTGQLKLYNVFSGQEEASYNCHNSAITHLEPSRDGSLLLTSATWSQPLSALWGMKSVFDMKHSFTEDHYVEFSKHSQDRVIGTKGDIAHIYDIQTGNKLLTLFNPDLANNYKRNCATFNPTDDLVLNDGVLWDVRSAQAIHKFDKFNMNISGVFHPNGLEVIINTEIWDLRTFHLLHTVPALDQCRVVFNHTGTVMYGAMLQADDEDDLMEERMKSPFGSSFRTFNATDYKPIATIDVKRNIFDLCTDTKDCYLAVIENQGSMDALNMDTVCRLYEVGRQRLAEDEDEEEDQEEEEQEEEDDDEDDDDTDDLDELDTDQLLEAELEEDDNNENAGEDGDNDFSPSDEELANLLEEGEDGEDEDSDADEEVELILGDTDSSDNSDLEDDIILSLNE
WDR5; 83.21 °C: 49000 a.u.
DCAF1; 70.81 °C: 54900 a.u.
DCAF1; 86.21 °C: 38800 a.u.
WDR5; 55.41 °C: 16800 a.u.
DCAF1; 48.4 °C: 14500 a.u.
DCAF1; 43 °C: 12400 a.u.
DCAF1; 31.8 °C: 9720 a.u.
DCAF1; 46.2 °C: 13500 a.u.

Other studies, line by line
KRAS: GTPase KRas (KRAS, Homo sapiens, UniProt P01116)
C#Cc1cccc2cc(O)cc(-c3ncc4c(N5CC6CCC(C5)N6)nc(OCC56CCCN5CCC6)nc4c3F)c12  normalized BRET (GTPase HRas (HRAS, Homo sapiens, UniProt P01112); binding, competitor, NanoBRET; HEK293; 41.1 nM): 92.5% and 108% and 112% and 84.2%
COc1cc(-c2nc3ccc(C(=O)NCCCN(C)C)cc3n2C2CCC2)cc(OC)c1OC  receptor occupancy (Focal adhesion kinase 1 (PTK2, Homo sapiens, UniProt Q05397); NanoBRET; 1 µM): -0.78%
CN1CCC[C@H]1COc1nc2c(c(N3CCN(C(=O)C4CC4)[C@@H](CC#N)C3)n1)CCN(c1cccc3cccc(Cl)c13)C2  IC50 (GTPase KRas (KRAS, Homo sapiens, UniProt P01116, Q61H); target engagement in cells, BRET): 3.3 µM
CN1CCC[C@H]1COc1nc2c(c(N3CCN(C(=O)C(F)(F)F)[C@@H](CC#N)C3)n1)CCN(c1cccc3cccc(Cl)c13)C2  IC50 (KRAS; target engagement in cells, BRET): 3.2 µM
C=CC(=O)N1CCN(c2nc(OC[C@@H]3CCCN3C)nc3c2CCN(c2cccc4cccc(C)c24)C3)C[C@@H]1CC#N  IC50 (KRAS; target engagement in cells, BRET): 0.62 µM

Repeated from above (study 2):
WDR5; 55.41 °C: 16800 a.u.
DCAF1; 46.2 °C: 13500 a.u.
